Published values pooled from the literature.
Protocols differ between the studies behind these lines.
TMPRSS2: Transmembrane protease serine 2 (TMPRSS2, Homo sapiens, UniProt O15393)
Sequence of UniProt O15393 (whole entry, looked up): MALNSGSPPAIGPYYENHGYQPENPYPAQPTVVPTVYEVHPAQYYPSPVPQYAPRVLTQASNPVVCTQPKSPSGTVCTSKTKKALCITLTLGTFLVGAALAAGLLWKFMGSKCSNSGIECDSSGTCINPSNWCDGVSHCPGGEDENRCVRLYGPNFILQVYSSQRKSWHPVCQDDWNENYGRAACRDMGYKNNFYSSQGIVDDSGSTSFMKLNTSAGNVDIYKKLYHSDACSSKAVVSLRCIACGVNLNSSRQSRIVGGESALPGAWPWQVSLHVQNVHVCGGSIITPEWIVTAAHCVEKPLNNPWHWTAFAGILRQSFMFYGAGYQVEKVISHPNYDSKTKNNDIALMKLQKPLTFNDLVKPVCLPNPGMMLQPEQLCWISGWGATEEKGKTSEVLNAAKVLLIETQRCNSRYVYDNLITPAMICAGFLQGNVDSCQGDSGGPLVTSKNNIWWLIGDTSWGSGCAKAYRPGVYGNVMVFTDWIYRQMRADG
Sequence of UniProt P06239 (whole entry, looked up): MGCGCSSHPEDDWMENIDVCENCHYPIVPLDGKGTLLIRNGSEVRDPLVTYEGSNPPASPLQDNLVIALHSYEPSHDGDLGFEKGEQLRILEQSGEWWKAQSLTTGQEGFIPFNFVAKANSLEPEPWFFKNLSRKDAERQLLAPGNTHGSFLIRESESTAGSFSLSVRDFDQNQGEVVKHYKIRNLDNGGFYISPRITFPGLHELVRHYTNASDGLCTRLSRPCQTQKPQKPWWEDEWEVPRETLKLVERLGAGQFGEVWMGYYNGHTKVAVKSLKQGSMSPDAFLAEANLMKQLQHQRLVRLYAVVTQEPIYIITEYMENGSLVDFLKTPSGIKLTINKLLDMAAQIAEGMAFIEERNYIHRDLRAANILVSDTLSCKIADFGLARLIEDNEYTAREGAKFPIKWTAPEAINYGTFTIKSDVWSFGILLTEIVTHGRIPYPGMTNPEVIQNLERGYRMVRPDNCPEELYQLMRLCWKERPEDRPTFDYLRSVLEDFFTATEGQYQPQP
Sequence of UniProt P49760 (whole entry, looked up): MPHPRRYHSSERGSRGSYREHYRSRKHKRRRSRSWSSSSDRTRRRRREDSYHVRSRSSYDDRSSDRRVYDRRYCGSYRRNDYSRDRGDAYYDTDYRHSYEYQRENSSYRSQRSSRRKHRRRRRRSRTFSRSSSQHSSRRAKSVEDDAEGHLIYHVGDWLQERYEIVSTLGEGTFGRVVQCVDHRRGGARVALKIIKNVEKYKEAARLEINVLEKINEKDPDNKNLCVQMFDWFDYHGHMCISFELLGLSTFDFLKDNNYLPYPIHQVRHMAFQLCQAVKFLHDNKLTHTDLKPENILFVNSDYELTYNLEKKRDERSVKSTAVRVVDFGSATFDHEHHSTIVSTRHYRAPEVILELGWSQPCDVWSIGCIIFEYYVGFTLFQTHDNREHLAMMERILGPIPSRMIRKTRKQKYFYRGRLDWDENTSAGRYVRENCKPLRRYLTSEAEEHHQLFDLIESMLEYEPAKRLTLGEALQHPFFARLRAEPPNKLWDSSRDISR
Sequence of UniProt Q86UX6 (whole entry, looked up): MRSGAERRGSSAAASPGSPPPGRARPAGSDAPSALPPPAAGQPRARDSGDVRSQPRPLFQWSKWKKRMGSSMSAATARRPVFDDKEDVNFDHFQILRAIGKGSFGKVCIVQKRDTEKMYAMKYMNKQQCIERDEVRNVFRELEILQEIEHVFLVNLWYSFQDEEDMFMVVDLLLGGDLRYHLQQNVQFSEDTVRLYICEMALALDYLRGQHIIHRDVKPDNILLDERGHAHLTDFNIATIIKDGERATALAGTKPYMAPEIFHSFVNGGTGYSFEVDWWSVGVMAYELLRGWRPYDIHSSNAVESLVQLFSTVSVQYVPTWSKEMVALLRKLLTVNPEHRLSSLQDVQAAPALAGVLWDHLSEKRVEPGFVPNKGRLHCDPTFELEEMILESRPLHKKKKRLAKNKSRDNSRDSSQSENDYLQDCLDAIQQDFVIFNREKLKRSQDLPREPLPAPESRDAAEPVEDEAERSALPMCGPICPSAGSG
Sequence of UniProt Q9Y2H1 (whole entry, looked up): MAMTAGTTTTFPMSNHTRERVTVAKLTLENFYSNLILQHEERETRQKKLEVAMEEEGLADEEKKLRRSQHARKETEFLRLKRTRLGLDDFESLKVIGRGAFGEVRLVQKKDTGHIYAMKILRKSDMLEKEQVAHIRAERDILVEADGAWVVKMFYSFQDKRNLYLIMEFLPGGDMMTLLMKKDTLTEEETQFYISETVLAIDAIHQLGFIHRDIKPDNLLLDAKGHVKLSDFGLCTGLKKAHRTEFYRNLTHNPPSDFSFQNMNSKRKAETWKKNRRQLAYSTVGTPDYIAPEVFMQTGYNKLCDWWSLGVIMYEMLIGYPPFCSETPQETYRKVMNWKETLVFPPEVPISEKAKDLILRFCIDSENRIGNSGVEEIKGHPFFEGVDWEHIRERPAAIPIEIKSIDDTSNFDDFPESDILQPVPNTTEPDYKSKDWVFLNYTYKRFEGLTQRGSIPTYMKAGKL

N=C(N)NCCCCC(=O)N[C@@H](CCC(=O)O)C(=O)N[C@@H](Cc1ccccc1)C(=O)N[C@H](CCCNC(=N)N)C(=O)c1nc2ccccc2s1  activity vs control (TMPRSS2; enzyme activity, inhibitor; 1 nM): 31%
Nc1ncc(-c2nc(N3CCOCC3)nc(N3CCOCC3)n2)c(C(F)F)n1  remaining binding (Cyclin-dependent kinase 2 homolog (CRK2, Plasmodium falciparum, UniProt P61075); binding, competition with immobilised ligand; 10 µM): 64%
COc1ccc2nc(C)cc(Nc3ccc(Cl)c(Cl)c3)c2c1  IC50 (Dihydroorotate dehydrogenase (quinone), mitochondrial (PFF0160c, Plasmodium falciparum, UniProt Q08210, E182D); enzyme activity, inhibitor, absorbance): > 10 µM
COc1ncccc1-c1cnn2ccc(N3CCN(C(=O)OC(C)C)CC3)nc12  remaining binding (Serine/threonine-protein kinase 32C (STK32C, Homo sapiens, UniProt Q86UX6); binding, competition with immobilised ligand; 1 µM): 62%
N=C(N)NCCCCC(=O)N[C@@H](CCC(N)=O)C(=O)N[C@@H](Cc1ccc(-c2ccccc2)cc1)C(=O)N[C@@H](CCCNC(=N)N)C(=O)c1nc2ccccc2s1  activity vs control (TMPRSS2; enzyme activity, inhibitor; 1 nM): 94%
C#Cc1n[nH]c2c(-c3cn([C@@H](C)c4ccccn4)c(=O)[nH]c3=O)cc(F)cc12  inhibition (Protein kinase C alpha type (PRKCA, Homo sapiens, UniProt P17252); enzyme activity, inhibitor; 0.1 µM): 4.2%
N.N.[Cl][Pt][Cl]  IC50 (P3HR-1; cell growth or viability, ATP luminescence; 72 h): 5.6 µM
CC(C)CC(=O)OC[C@H]1O[C@@](C#N)(c2ccc3c(N)ncnn23)[C@H](O)[C@@H]1O  inhibition (Tyrosine-protein kinase Lck (LCK, Homo sapiens, UniProt P06239); enzyme activity, inhibitor; 20 µM): 10%
Cc1nn(C)cc1-c1nc2c(N3CCN(Cc4ccc(Cl)cc4)CC3)c(Cl)cnc2[nH]1  remaining binding (Serine/threonine-protein kinase 38-like (STK38L, Homo sapiens, UniProt Q9Y2H1); binding, competition with immobilised ligand; 1 µM): 90%
COC(=O)c1cc(-c2cccc(NC(=S)Nc3ccc(Cl)cc3)c2)on1  MIC (Pseudomonas aeruginosa; microbial growth, broth dilution; ATCC27853): > 64 µg/mL
CC(C)CCC(=O)N[C@@H](Cc1ccc(O)cc1)C(=O)N[C@H](C(=O)N[C@@H](CCCNC(=N)N)C(=O)c1nc2ccccc2s1)C(C)C  activity vs control (TMPRSS2; enzyme activity, inhibitor; 1 nM): 92%
COC(=O)c1cc(-c2cccc(NC(=S)Nc3cccc(Cl)c3)c2)on1  MIC (Mycolicibacterium fortuitum; microbial growth, broth dilution; ATCC6841; 48 h): > 64 µg/mL
[2H]c1c([2H])c([C@]2([2H])CCCN2C(=O)C(C)(C)Oc2ccc3cn[nH]c3c2)c([2H])c([2H])c1C([2H])([2H])[2H]  remaining binding (Dual specificity protein kinase CLK2 (CLK2, Homo sapiens, UniProt P49760); binding, competition with immobilised ligand; 1 µM): 66%
